Results of several laboratories.
Numbered parts are unrelated; each lists some results of a single study. Changes are numbered by the printed parent chain.

Block 1 — method: RNA Bind-n-Seq; molecule type: RNA; medium: in vitro; concentration: not given; baseline: input RNA pool; reading: higher = stronger binding
Target: RING finger protein unkempt homolog, zinc fingers 1-6, GST-SBP tag (UNK, Homo sapiens, UniProt Q9C0B0, residues 30-357)
Setting: RNA with constant flanks, human and mouse sites, ends assumed
Shared flanks, not repeated: GGGAGUUCUACAGUCCGACGAUC … CAACAGAGGAUUGAGCAUCA
Residues (chain): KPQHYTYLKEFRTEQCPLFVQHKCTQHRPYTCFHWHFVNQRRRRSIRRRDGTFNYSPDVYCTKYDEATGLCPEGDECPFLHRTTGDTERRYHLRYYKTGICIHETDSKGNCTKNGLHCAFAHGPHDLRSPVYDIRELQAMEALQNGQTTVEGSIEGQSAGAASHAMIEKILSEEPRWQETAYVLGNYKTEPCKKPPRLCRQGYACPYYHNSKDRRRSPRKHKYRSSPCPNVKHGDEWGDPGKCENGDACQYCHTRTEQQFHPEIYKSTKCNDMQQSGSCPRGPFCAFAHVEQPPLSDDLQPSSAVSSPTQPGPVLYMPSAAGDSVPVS
| Sequence | bound/input enrichment |
| --- | --- |
| UUCACCGAAGUUGCAAUUGGCCCAUCCGUGCUCAAUGCUGCCAGAGAUGAUAUUAGCAAGCUUAGGAAUACACUUCGCUUUCUUUUGGGAAAUGUGGCUGAUUUCAACCCAGAAACAGAU | 0.319 ratio |
| CAACAAAAGAUAAACAAAUUUGCACGGAAUACAAGUAGAAUCACAGAGCUGAAGGAAGAAAUAGAAGUAAAAAAGAAACAACUCCAAAACCUAGAAGAUGCUUGUGAUGACAUCAUGCUU | 1.53 ratio |
| GAUGAGGUGUUGGUAAAUCACUUCUGUGAAGAAUUUGGAAAGAAAUACAAGCUAGACAUAAAAUCUAAAAUUCGUGCUUUAUUACGACUGUCUCAAGAGUGUGAGAAACUCAAGAAAUUG | 0.542 ratio |
| CCUCUUCUGGCCUGCCUCCUUGGCAACGACAUAAUCCCAGAGGGCAUGUUUGAAAGCUUUAGGUACAAAUGCUUAUCGUCCUACACCUCUGUAAAAGAGAACUUUGACAAAAAAGGUAAC | 0.382 ratio |
| UGUAGACAGGCUUGGGGGAACACCCCUCCCCCCUGCUCCCUUCCCCUGGCCUGGCCCUCUCGUCCUCAGGUGUACACGUGUUUGGCCUGUGUGCCACGGCUCUGGUGACAGAUGUCAUCC | 0.196 ratio |
| AGGAAAGCAACCAAGUGGGCACAGUCGGGCCUCAUUGUCAGUGUCGGACCACCAGUGGAAUCCAUCAACCCAGAGACUGUGAGUGGGCUGUCCACAGGUGACAAGAAGAAAACUGCCCAA | 0.131 ratio |
| GUUGAGCCCAGUCCCUCCCCAAUCAAGCCUGGAGACAUCAAAAGAGGAAUUCCUAAUUACGAAUUUAAGCUUGGUAAGAUCACUUUCAUCAGAAAUUCACGUCCAUUGGUCAAAAAGGUU | 0.346 ratio |
| UUGGGCACAGGAUCUGGUCUUAACUUAAGAAUGGCUGGACCUCAAGGCCUCGAUCUUGCCCCCAUUCUAAGAGCAGCAGGUCUUUUAGGAGCAAAUUCAGCUUCUUUCUCACAGGCUUCU | 0.0824 ratio |

Block 2 — method: RNA Bind-n-Seq; molecule type: RNA; medium: in vitro; concentration: 365 nM; baseline: no-protein control; reading: higher = stronger binding
Target: RNA binding protein fox-1 homolog 2, RRM domain, GST-SBP tag (RBFOX2, Homo sapiens, UniProt O43251-10, residues 100-194)
Setting: natural RNA segment, single round, ends assumed
Shared flanks, not repeated: GGGAGUUCUACAGUCCGACGAUC … UGGAAUUCUCGGGUGCCAA
Construct (chain): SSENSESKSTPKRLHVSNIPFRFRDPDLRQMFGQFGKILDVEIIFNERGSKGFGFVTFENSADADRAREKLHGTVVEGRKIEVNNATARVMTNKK
| Sequence | RBNS enrichment (R) |
| --- | --- |
| AAAUGAGCAGAGGCCUGUAGGUAGCACCUGAGGGUCCAGGGAGGUAUAUGGACAGGCCUGCAUCACAGCAUCCUAGACUUCUUUGGAGACCCGUUUGAUAGUACUUUCAG | 0.735 |
| UAAUAUGAUGCCACUUUGCAGCUAAAAUAAGCUCAGUGAUACCUCCUUGUUAAAAAAAAAAAAAAAAAAAAAGAAUGCCAGGGGGGAAUUAUCAUGCUAAAUUAUUUUAC | 0.948 |
| UAUAGUUAAAAUGGCUUCCCACAGGGUAGAUAAUUAUCCAGGAUCCUUCCUUUUCCUUCUUCCUCCAGGUUUUUCAGGGGUCACUUCACAUUUCUAAAGAAAGAGUGAAU | 0.278 |
| AGCAUGCUGCGCAGACACUGGCAUAGCAUGCCCUGGGUACACUAACACUCACCUGCUCCCUUUCGUUCCGCUUGUCUUGGCAGUUGACAAGACAUUCGUUUGCUUUAGUG | 0.423 |
| UCCCCUCUUAACCAUGACCAGCGGAAGCAGGUGUGUGUGACCAGGGCACGGGGUGAAGAAUCUGCCCAUCAAGGUGGGUGGGCCUCAUGUCGCUGCCCCCACCAGAGUCC | 0.149 |
| GGUCGUUGACUGCUUCACACUUACCUUGCUGAACAUGAACUUUCAGACCUAGAAGUCACUUUUAUGAUUUAUGAUAUAUGAUGUGUUUUUUACUAUUGUAUGUCAUUUAA | 0.28 |
| GUCUUUGGUGCUGUUAACCCUUGGCUCCAUUUGACCAUCAAUCUGAGCAAUGAGCAAAGCAAUAUCAUAUCCAUGUUUAUGUCCCUCCUCCUUCCCUUGCUCCUCCUCUG | 0.518 |
| CCAGGCAAGGAGACCAAAACUUUCGCUCUGUUCACUUGUGCCUCACUUUGGAAGCUUAACUUCCCACCUAUCUGGGCCUUACUGGUUUACUUGUGGUUUUCCAUAGUUUU | 0.202 |

Block 3 — method: protein binding microarray; molecule type: double-stranded DNA, one strand shown; medium: in vitro; concentration: not given; baseline: not given; reading: higher = stronger binding
Target: Histone acetyltransferase KAT6A, winged helix 2, GST fusion (KAT6A, Homo sapiens, UniProt Q92794, residues 85-181)
Setting: 8-mer, flanks averaged, mean of 2 arrays, mostly near background
Construct (chain): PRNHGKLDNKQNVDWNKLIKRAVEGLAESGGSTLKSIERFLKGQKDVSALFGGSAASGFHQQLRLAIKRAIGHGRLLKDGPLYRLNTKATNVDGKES
| Sequence | E-score |
| --- | --- |
| CCTTCCCA | 0.176 |
| CATACGGA | 0.0576 |
| ATCGGGCC | 0.109 |
| ACAGTAAC | -0.0982 |
| ATGAACCC | -0.0577 |
| ACACTGGG | -0.115 |
| CAATGTAG | -0.0119 |
| CCTAGCCG | 0.0374 |

Single results of other studies — starting sequence: viral docking peptide; KKAKRRLFTISDS
| Variant | target | test | system | setting | how to read | endpoint | result |
| --- | --- | --- | --- | --- | --- | --- | --- |
| KKAKRRLFTISDA [S13A] | CCNE2, cyclin fold, Cln2 fusion (human) | yeast growth competition, sequencing | yeast | strong parent motif | baseline: not given, higher = stronger binding | normalised enrichment score | 2.47 |

A few entries again (block 1):
| Sequence | bound/input enrichment |
| --- | --- |
| UUGGGCACAGGAUCUGGUCUUAACUUAAGAAUGGCUGGACCUCAAGGCCUCGAUCUUGCCCCCAUUCUAAGAGCAGCAGGUCUUUUAGGAGCAAAUUCAGCUUCUUUCUCACAGGCUUCU | 0.0824 ratio |
